Experimental data pooled from the literature.
Compare with care: the assays were run in different laboratories. Several values in a cell are separate wells, animals, samples, runs or records. Numbers after ± are the reported error.
Nuclear receptor subfamily 2 group C member 2 ligand-binding domain: Nuclear receptor subfamily 2 group C member 2, ligand-binding domain (Homo sapiens, UniProt P49116)
Chain of UniProt P49116 (whole entry, looked up): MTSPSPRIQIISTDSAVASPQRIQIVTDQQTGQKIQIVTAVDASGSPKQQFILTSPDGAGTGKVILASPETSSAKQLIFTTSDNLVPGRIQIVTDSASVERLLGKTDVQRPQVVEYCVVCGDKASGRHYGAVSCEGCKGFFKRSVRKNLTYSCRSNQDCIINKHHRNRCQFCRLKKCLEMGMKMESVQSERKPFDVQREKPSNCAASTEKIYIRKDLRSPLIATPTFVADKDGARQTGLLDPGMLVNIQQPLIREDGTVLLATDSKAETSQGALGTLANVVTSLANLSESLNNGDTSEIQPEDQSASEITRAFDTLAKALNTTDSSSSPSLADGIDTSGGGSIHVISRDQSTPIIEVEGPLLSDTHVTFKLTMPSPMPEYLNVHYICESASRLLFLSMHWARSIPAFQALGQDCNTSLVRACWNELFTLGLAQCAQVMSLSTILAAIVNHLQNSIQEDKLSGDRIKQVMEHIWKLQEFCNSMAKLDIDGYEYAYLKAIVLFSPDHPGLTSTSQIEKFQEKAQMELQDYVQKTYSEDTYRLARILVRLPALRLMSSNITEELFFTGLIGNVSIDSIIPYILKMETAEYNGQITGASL
TOP2A: DNA topoisomerase 2-alpha (TOP2A, Homo sapiens, UniProt P11388)
Chain of UniProt P11388 (whole entry, looked up): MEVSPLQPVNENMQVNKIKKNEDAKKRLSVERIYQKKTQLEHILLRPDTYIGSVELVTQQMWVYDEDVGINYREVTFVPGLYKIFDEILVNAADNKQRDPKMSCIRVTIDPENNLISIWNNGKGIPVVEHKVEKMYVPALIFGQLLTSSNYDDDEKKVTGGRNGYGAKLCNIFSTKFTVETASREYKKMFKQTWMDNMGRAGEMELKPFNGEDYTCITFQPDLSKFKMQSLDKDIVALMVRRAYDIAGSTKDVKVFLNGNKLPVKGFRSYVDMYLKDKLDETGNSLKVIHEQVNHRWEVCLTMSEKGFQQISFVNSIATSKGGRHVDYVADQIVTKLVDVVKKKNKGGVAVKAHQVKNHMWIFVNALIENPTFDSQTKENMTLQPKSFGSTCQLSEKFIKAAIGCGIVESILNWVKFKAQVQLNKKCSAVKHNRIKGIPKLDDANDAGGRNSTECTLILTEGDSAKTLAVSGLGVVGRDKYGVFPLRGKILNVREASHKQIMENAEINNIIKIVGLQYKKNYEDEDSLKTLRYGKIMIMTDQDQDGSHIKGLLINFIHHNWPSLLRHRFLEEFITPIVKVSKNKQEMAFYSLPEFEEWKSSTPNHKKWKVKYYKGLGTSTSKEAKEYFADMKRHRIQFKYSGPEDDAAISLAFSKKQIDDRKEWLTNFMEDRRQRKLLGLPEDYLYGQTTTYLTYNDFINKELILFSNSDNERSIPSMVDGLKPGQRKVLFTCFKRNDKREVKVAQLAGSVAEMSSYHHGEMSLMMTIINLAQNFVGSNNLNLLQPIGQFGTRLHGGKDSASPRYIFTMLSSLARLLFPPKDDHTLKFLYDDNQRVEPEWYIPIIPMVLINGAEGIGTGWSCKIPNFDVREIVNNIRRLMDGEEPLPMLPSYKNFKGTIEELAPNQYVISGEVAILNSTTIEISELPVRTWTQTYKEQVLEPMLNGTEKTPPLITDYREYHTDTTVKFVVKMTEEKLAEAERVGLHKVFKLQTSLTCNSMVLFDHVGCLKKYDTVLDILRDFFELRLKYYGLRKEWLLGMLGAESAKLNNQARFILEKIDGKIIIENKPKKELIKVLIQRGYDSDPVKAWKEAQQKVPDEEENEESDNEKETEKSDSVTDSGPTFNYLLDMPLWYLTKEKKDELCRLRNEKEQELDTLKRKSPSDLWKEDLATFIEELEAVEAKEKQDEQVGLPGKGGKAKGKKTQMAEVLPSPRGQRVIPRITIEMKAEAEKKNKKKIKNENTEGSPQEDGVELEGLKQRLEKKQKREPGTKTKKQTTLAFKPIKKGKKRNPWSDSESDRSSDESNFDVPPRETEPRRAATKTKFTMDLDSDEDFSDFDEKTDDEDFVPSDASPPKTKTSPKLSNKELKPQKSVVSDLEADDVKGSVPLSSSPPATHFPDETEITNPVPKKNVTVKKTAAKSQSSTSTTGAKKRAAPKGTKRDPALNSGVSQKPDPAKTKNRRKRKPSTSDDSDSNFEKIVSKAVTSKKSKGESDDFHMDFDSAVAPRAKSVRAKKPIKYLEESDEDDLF
CBK1: Serine/threonine-protein kinase CBK1 (CBK1, Candida albicans, UniProt Q5AP53)
Chain of UniProt Q5AP53 (whole entry, looked up): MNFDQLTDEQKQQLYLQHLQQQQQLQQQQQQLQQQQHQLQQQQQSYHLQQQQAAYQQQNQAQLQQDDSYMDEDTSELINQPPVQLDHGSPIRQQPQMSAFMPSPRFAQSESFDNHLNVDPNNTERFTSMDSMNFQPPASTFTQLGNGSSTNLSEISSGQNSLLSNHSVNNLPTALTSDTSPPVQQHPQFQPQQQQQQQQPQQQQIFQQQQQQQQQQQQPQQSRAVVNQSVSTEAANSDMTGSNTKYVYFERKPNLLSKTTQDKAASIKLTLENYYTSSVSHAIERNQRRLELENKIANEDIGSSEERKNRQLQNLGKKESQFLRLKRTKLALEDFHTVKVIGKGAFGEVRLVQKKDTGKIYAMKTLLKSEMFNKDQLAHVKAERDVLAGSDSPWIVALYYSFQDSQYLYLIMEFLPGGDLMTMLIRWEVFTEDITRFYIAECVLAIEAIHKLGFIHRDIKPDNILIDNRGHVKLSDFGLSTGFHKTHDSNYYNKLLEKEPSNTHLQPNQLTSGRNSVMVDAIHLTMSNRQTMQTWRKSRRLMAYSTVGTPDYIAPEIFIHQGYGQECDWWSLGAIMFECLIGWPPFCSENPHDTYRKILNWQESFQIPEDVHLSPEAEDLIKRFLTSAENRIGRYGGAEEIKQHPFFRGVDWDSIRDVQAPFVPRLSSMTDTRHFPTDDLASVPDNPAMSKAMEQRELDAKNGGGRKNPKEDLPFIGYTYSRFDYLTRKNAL
T1: riboswitch RNA yjdF aptamer (Bacillus subtilis); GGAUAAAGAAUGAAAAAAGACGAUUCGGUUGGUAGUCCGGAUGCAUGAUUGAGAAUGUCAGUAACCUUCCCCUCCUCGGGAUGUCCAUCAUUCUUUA
Chain of UniProt Q16774 (whole entry, unmodified, looked up): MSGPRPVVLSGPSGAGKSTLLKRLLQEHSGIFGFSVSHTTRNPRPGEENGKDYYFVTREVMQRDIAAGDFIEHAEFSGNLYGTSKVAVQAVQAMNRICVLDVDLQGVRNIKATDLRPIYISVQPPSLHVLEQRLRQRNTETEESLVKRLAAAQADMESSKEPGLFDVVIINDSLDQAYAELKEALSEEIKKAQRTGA
Chain of UniProt O14980 (whole entry, looked up): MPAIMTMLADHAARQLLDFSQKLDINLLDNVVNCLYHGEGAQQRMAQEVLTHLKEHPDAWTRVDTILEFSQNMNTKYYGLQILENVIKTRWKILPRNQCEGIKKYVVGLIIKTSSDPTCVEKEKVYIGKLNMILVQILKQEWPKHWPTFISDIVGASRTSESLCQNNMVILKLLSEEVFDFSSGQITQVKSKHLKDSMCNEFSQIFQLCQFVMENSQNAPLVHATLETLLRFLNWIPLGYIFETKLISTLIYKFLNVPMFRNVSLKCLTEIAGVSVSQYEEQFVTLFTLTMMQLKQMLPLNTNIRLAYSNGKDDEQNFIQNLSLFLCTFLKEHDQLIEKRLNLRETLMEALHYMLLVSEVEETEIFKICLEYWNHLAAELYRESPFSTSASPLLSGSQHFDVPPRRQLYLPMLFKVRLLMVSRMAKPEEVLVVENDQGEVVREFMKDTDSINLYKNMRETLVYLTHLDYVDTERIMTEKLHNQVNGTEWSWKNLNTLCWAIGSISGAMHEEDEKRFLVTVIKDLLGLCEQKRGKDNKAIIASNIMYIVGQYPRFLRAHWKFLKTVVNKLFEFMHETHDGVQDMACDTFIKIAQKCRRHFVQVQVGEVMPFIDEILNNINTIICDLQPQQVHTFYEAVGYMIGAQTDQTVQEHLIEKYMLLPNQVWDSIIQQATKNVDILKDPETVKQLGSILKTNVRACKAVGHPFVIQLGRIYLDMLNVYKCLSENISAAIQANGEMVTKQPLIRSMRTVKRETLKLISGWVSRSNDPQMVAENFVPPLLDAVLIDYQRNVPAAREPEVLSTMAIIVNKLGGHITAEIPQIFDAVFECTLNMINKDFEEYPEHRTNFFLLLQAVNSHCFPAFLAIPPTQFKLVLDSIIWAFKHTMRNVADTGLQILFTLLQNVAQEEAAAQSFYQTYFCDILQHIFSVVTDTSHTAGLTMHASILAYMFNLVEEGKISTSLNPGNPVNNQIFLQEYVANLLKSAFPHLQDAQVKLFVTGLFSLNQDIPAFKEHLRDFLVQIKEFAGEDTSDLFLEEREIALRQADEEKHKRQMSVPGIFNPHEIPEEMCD
Chain of UniProt Q6P996 (whole entry, looked up): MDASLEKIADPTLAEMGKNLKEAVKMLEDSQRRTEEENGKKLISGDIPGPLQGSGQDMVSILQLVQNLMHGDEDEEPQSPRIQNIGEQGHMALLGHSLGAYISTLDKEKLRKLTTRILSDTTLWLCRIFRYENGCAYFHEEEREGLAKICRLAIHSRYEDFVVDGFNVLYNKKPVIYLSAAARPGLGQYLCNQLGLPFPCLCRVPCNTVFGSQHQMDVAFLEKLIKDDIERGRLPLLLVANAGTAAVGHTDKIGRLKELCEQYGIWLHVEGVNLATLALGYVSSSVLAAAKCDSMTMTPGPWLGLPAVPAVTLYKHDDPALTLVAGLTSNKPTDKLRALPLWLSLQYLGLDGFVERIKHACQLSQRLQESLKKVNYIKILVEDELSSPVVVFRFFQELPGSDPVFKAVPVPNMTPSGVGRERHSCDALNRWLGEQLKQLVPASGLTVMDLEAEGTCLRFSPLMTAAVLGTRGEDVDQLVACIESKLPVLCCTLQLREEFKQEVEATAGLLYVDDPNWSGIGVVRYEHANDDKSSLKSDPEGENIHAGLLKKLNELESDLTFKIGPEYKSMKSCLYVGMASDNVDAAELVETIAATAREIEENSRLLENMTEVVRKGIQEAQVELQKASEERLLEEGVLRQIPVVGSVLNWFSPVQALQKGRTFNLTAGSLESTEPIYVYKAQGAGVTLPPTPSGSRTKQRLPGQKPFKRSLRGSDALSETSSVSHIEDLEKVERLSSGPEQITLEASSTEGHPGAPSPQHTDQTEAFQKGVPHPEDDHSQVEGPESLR

For `Clc1ccc(COC(Cn2ccnc2)c2ccc(Cl)cc2Cl)c(Cl)c1` (stereo not shown), the koff was 6.88e-06 s⁻¹ (Nuclear receptor subfamily 2 group C member 2 ligand-binding domain; SPR imaging; 600 nM).
Under “cells with nuclear reporter”, `CCS(=O)(=O)c1nc(C2CC2)cc(C(F)(F)F)n1` is recorded as 3.13% and 2.18% and 1.78% (Exportin-1 (XPO1, Homo sapiens, UniProt O14980); nuclear export, high content imaging; HeLa Kyoto reporter; 0.05 µM, 2 h).
`CC(=O)c1ccc2cc(S(=O)(=O)Nc3ccc(Br)cc3)ccc2c1` has a Hill slope of -0.534 (Signal transducer and activator of transcription 3 (STAT3, Homo sapiens, UniProt P40763); tyrosine phosphorylation, inhibitor, ELISA, measured: phospho-Tyr705).
`COc1ccc(CCc2nc3cc(-c4c(C)noc4C)ccc3n2C[C@H](C)N2CCOCC2)cc1Cl` gave a viability of 119% (OCI-Ly1; 0.5 µM, 120 h).
The Kd of `Cc1cc2nc3[nH]c(=O)[nH]c(=O)c3nc2cc1C` is reported as 1200 nM (T1, riboswitch RNA yjdF aptamer (Bacillus subtilis); fluorescence titration; with: 380 nM lumichrome).
With `CC(C)C[C@@H]1NC(=O)CNC(=O)[C@H](CC(C)C)NC(=O)[C@@H]2CCCN2C(=O)[C@H](CC(=O)O)NC(=O)[C@H](Cc2ccc(O)cc2)NC(=O)CNC(=O)[C@@H](Cc2ccc(O)cc2)NC(=O)CSC[C@@H](C(N)=O)NC(=O)[C@H](C)NC(=O)[C@H](Cc2ccccc2)NC(=O)[C@H](Cc2ccc(O)cc2)NC(=O)[C@H](CCCCN)NC1=O` the ΔH was -11.6 ± 1.3 kcal/mol (VPS35/VPS29 (Homo sapiens, UniProt Q96QK1+Q9UBQ0); binding, isothermal titration calorimetry; 25 °C).
With `O=c1nc(SCc2ccc(C(F)(F)F)cc2)nc(SCc2csc3ccc(Cl)cc23)[nH]1` the relaxed DNA was 60.8% (TOP2A; DNA relaxation; 7.8 µM, replicate 1).
`Cc1ccccc1C1CC(=O)c2c(C)nc(N)nc2C1` (stereo not shown) has a fold enrichment of 0.895 (Coatomer subunit beta', WD repeat domain (Homo sapiens, UniProt P35606); binding, affinity selection mass spectrometry; relative to: other proteins in batch).
The inhibition of `CC[C@@H]1[C@H](F)C(=O)N[C@@H]1COc1nccc2cc(C(N)=O)c(OC)cc12` is reported as -1% (Calcium/calmodulin-dependent protein kinase type II subunit gamma (CAMK2G, Homo sapiens, UniProt Q13555); ATP-site probe binding, ActivX profiling; THP-1 cell lysate; 0.01 mM, Lys1 site).
Under “thermal stability ratio”, `O=C(COP(=O)(O)O)[C@@H](O)[C@H](O)[C@H](O)COP(=O)(O)O` is recorded as 0.516 and 0.6 and 0.625 (Pyridoxal-dependent decarboxylase domain-containing protein 1 (PDXDC1, Homo sapiens, UniProt Q6P996); thermal proteome profiling, measured: PDXDC1; HepG2 cell lysate; concentration not given, 57 over 37 °C; relative to: compound over control).
The reaction rate of `Nc1nc2c(ncn2[C@@H]2O[C@H](COP(=O)(O)O)[C@@H](O)[C@H]2O)c(=O)[nH]1` is reported as 30.8 s⁻¹ and 30 s⁻¹ and 40.6 s⁻¹ (GUK1 (Homo sapiens, UniProt Q16774); enzyme activity, NADH-coupled; 1000 µM).
`Nc1ncnc2c1ncn2[C@@H]1O[C@H](COP(=O)(O)OP(=O)(O)OP(=O)(O)O)[C@@H](O)[C@H]1O`: “short closed time” 0.9 ms (ATP-sensitive inward rectifier potassium channel 1 (Rattus norvegicus, UniProt P35560); inside-out patch clamp; renal principal cells, rat; 0.4 mM).
The fold enrichment of `O=C(O)[C@@H]1CCCN1c1ncnc2[nH]cnc12` (racemic) is reported as 0.798 (E3 SUMO-protein ligase PIAS1 (PIAS1, Homo sapiens, UniProt O75925); binding, affinity selection mass spectrometry; relative to: other proteins in batch).
`COc1cc(NC(=O)c2ccccn2)ccc1/N=N/c1ccccc1Cl` has an activation of 13.9% (Metabotropic glutamate receptor 7 (GRM7, Homo sapiens, UniProt Q14831); positive allosteric modulator, IP accumulation; HEK293; 30 µM, in the dark, with: low-dose orthosteric agonist).
For `NCCCC(=O)O`, “normalised MST signal” read -0.0041 (Sodium- and chloride-dependent taurine transporter (SLC6A6, Homo sapiens, UniProt P31641, G62A); binding, microscale thermophoresis; 3.91 µM, room temperature, with: 50 nM labelled protein; higher = more binding).
`O=C1OC(c2ccccc2)=N/C1=C\c1ccc(O)c(O)c1` gave a Km of 569 µM (Pancreatic alpha-amylase (Homo sapiens, UniProt P04746); inhibitor, Lineweaver-Burk; 300 ppm, with: starch substrate).
The Km of `Nc1ncnc2c1ncn2[C@@H]1O[C@H](COP(=O)(O)OP(=O)(O)OP(=O)(O)O)[C@@H](O)[C@H]1O` is reported as 1100 µM (GUK1 (Homo sapiens, UniProt Q16774, S13A); substrate, NADH-coupled).
`Nc1ccc(C(=O)O)c(O)c1` gave a koff of 2.2e-05 s⁻¹ (Nuclear receptor subfamily 2 group C member 2 ligand-binding domain; SPR imaging; 600 nM).
`CCNC(=O)/C=C/c1cccc(Br)c1`: “remaining transport activity” 0.0746 (Sodium-dependent neutral amino acid transporter B(0)AT1 (SLC6A19, Homo sapiens, UniProt Q695T7); inhibitor, L-[14C]leucine uptake; CHO-BC cells; 30 µM, 6 min, unit not given, with: GPNA 3 mM, JPH203 3 µM; relative to: uninhibited cells).
With `O=C(NC1CCC1)c1ccc2nc(-c3cccc(NS(=O)(=O)NCCN4CCCCC4)c3)cn2c1` the remaining activity was 90% (ALK tyrosine kinase receptor (ALK, Homo sapiens, UniProt Q9UM73, C1156Y); enzyme activity; 10 µM).
The ED50 of `O=C(Nc1cccnn1)N1CCC(=Cc2cccc(Oc3ccc(C(F)(F)F)cn3)c2)CC1` is reported as 4.3 mg/kg (Fatty-acid amide hydrolase 1 (Faah, Mus musculus, UniProt O08914); enzyme activity, inhibitor, ex vivo; rat, brain; oral, 8 h).
Under “-TΔS of binding”, `C[S+](CC[C@H](N)C(=O)O)C[C@H]1O[C@@H](n2cnc3c(N)ncnc32)[C@H](O)[C@@H]1O` (stereo partly shown) is recorded as 0.55 kcal/mol (O-methyltransferase (Sorghum bicolor, UniProt A0A1B6PFV1); isothermal titration calorimetry; concentration not given, apo protein).
With `CCOc1cc(-c2nncn2C)ccc1Nc1ncc2cc(C)nc(NCC(C)(C)C)c2n1` the displacement was 21% (Receptor-interacting serine/threonine-protein kinase 2 (RIPK2, Homo sapiens, UniProt O43353); binding, LanthaScreen binding; 1 µM).
`c1ccc(-c2n[nH]cc2-c2ccnc3ccccc23)nc1`: “log2 fold change” 1.56 (CBK1; kinase binding, competitor, MIB/MS competition, measured: CBK1; Candida albicans cell lysate; 10 µM; relative to: DMSO).
For `C=CC(=O)N1CCC(COCC(=O)N2CCN(c3nc(-c4cnc(N)nc4C(F)F)nc(N4CCOC[C@@H]4C)n3)CC2)CC1`, the remaining binding was 98% (Serine/threonine-protein kinase 33 (STK33, Homo sapiens, UniProt Q9BYT3); KINOMEscan; 1 µM).
`CC1=C(/C=C/C(C)=C/C=C/C(C)=C/C=O)C(C)(C)CCC1` gave a relative kon of 1.51 ± 0.28 (Rhodopsin, I189A/S144C (RHO, Bos taurus, UniProt P02699, I189A/S144F); retinal entry, Alexa488 FRET; lipid bicelles; 28 °C, I189A mutant; relative to: wild-type rhodopsin).
`O=c1nc(SCc2cc(F)cc(C(F)(F)F)c2)nc(SCc2csc3ccc(Cl)cc23)[nH]1` — result for “mean linear DNA”: 2.21% (TOP2A; DNA cleavage; 15.6 µM).
For `C[C@@H](NCCCc1cccc(C(F)(F)F)c1)c1cccc2ccccc12`, the koff was 1.46e-05 s⁻¹ (Nuclear receptor subfamily 2 group C member 2 ligand-binding domain; SPR imaging; 600 nM).
`OC[C@H]1OC(O)[C@H](O)[C@@H](O)[C@@H]1O` (stereo partly shown) — result for “entropic term TΔS”: -13.2 ± 0.4 kcal/mol (Hexokinase-3 (HK3, Homo sapiens, UniProt P52790); isothermal titration calorimetry; 25 °C).
`O=S1(=O)N=C(Nc2ccccc2)c2ccccc21` — result for activity: “inactive” (Pyruvate kinase PKLR (PKLR, Homo sapiens, UniProt P30613); enzyme activity, activator; 10 µM).
`CC#Cc1cncc(-c2ccc3c(c2)[C@@]2(N=C(C)C(N)=N2)[C@]2(CC[C@H](OC)CC2)C3)c1`: “time to complete displacement” ~15 h (Beta-secretase 1 (BACE1, Homo sapiens, UniProt P56817); binding, surface plasmon resonance; 20 µM).
The koff of `CN(C)CCC=C1c2ccccc2CCc2ccccc21` is reported as 1.24e-07 s⁻¹ (Nuclear receptor subfamily 2 group C member 2 ligand-binding domain; SPR imaging; 600 nM).
`C[C@H](N)C(=O)N[C@@H](CCCNC(=N)N)C(=O)N[C@H](C(=O)N[C@@H](CCCCN)C(=O)N[C@@H](CCC(N)=O)C(=O)N[C@H](C(=O)N[C@@H](C)C(=O)N[C@@H](CCCNC(=N)N)C(=O)N[C@@H](CCCCN)C(=O)N[C@@H](CO)C(=O)O)[C@@H](C)O)[C@@H](C)O` gave a binding entropy of 8.44 cal/mol/K (Transcriptional regulator ATRX (ATRX, Homo sapiens, UniProt P46100, F284Y/K251R); isothermal titration calorimetry; concentration not given, pH 7.5, 25.0 °C).
`c1coc(-c2n[nH]cc2-c2ccnc3ccccc23)c1`: “log2 fold change” -0.14 (CBK1; kinase binding, MIB/MS competition; Candida albicans lysate; 1 µM; relative to: DMSO, negative = stronger binding).
With `CC(C)C[C@@H]1NC(=O)[C@H](C)NC(=O)CNC(=O)[C@H](CC(N)=O)NC(=O)[C@@H]2CCCN2C(=O)[C@H](Cc2ccc(O)cc2)NC(=O)[C@H](CCCNC(=N)N)NC(=O)[C@H](Cc2ccccc2)NC(=O)[C@@H](NC(=O)[C@H](CCCCN)NC(=O)[C@@H]2CCCN2C(=O)[C@H](CO)NC(=O)[C@H](C)NC(=O)[C@@H](N)Cc2ccc(O)cc2)CSSC[C@@H](C(=O)N[C@H](C(N)=O)[C@@H](C)O)NC(=O)[C@H](C)NC1=O` the -TΔS was -0.295 kcal/mol (Alpha-2-HS-glycoprotein, asialo (AHSG, Bos taurus, UniProt P12763); binding, isothermal titration calorimetry; pH 7.0, 25 °C, with: asialofetuin).
`O=C1[C@H](CC[C@H](O)c2ccc(F)cc2)[C@@H](c2ccc(O)cc2)N1c1ccc(F)cc1` gave a koff of 2.43e-05 s⁻¹ (Nuclear receptor subfamily 2 group C member 2 ligand-binding domain; SPR imaging; 600 nM).
The IC50 of `N#Cc1ccc(Cn2cncc2CN2CCN(c3cccc(OC(F)(F)F)c3)C(=O)C2)cc1Oc1ccccc1` is reported as 2600 ± 1400 nM (Cryptococcus neoformans farnesyltransferase; enzyme activity, inhibitor, fluorescence; with: 1 µM FPP, 0.5 µM dansylated peptide).

Repeated from above:
The koff of `CN(C)CCC=C1c2ccccc2CCc2ccccc21` is reported as 1.24e-07 s⁻¹ (Nuclear receptor subfamily 2 group C member 2 ligand-binding domain; SPR imaging; 600 nM).
`C[C@H](N)C(=O)N[C@@H](CCCNC(=N)N)C(=O)N[C@H](C(=O)N[C@@H](CCCCN)C(=O)N[C@@H](CCC(N)=O)C(=O)N[C@H](C(=O)N[C@@H](C)C(=O)N[C@@H](CCCNC(=N)N)C(=O)N[C@@H](CCCCN)C(=O)N[C@@H](CO)C(=O)O)[C@@H](C)O)[C@@H](C)O` gave a binding entropy of 8.44 cal/mol/K (Transcriptional regulator ATRX (ATRX, Homo sapiens, UniProt P46100, F284Y/K251R); isothermal titration calorimetry; concentration not given, pH 7.5, 25.0 °C).
`c1coc(-c2n[nH]cc2-c2ccnc3ccccc23)c1`: “log2 fold change” -0.14 (CBK1; kinase binding, MIB/MS competition; Candida albicans lysate; 1 µM; relative to: DMSO, negative = stronger binding).
With `CC(C)C[C@@H]1NC(=O)[C@H](C)NC(=O)CNC(=O)[C@H](CC(N)=O)NC(=O)[C@@H]2CCCN2C(=O)[C@H](Cc2ccc(O)cc2)NC(=O)[C@H](CCCNC(=N)N)NC(=O)[C@H](Cc2ccccc2)NC(=O)[C@@H](NC(=O)[C@H](CCCCN)NC(=O)[C@@H]2CCCN2C(=O)[C@H](CO)NC(=O)[C@H](C)NC(=O)[C@@H](N)Cc2ccc(O)cc2)CSSC[C@@H](C(=O)N[C@H](C(N)=O)[C@@H](C)O)NC(=O)[C@H](C)NC1=O` the -TΔS was -0.295 kcal/mol (Alpha-2-HS-glycoprotein, asialo (AHSG, Bos taurus, UniProt P12763); binding, isothermal titration calorimetry; pH 7.0, 25 °C, with: asialofetuin).
`O=C1[C@H](CC[C@H](O)c2ccc(F)cc2)[C@@H](c2ccc(O)cc2)N1c1ccc(F)cc1` gave a koff of 2.43e-05 s⁻¹ (Nuclear receptor subfamily 2 group C member 2 ligand-binding domain; SPR imaging; 600 nM).
The IC50 of `N#Cc1ccc(Cn2cncc2CN2CCN(c3cccc(OC(F)(F)F)c3)C(=O)C2)cc1Oc1ccccc1` is reported as 2600 ± 1400 nM (Cryptococcus neoformans farnesyltransferase; enzyme activity, inhibitor, fluorescence; with: 1 µM FPP, 0.5 µM dansylated peptide).
